Published values from different studies.
Parts stem from different laboratories: compare values within a part only.
Sequence of UniProt O00762 (whole entry, looked up): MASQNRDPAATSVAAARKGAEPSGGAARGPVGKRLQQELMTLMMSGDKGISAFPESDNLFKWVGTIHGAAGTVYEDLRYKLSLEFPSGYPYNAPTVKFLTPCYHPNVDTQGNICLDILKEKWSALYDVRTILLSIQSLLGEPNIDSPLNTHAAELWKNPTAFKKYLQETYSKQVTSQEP
Sequence of UniProt P61081 (whole entry, looked up): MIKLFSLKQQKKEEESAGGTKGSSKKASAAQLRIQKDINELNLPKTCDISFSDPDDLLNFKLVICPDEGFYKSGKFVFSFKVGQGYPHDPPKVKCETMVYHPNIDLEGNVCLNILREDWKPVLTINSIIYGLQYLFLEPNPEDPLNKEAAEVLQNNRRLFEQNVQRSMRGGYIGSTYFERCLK
Sequence of UniProt Q16763 (whole entry, looked up): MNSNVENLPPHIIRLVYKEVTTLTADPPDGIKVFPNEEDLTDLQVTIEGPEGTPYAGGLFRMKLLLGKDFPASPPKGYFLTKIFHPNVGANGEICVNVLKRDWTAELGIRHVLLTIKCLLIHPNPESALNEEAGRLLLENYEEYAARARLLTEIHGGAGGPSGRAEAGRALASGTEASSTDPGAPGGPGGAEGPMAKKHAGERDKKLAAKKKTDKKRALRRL
Sequence of UniProt Q9NPD8 (whole entry, looked up): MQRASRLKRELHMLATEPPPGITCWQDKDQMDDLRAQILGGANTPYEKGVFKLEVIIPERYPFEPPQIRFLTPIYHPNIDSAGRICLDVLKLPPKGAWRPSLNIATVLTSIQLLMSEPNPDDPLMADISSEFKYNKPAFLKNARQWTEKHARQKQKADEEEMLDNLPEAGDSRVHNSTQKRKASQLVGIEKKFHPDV
Sequence of UniProt Q969T4 (whole entry, looked up): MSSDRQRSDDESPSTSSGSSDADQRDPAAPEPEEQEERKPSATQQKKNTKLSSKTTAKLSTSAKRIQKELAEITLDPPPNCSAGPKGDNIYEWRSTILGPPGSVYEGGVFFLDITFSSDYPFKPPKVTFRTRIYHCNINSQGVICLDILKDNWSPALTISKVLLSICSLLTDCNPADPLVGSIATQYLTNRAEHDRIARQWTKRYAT
Sequence of UniProt Q7Z7E8 (whole entry, looked up): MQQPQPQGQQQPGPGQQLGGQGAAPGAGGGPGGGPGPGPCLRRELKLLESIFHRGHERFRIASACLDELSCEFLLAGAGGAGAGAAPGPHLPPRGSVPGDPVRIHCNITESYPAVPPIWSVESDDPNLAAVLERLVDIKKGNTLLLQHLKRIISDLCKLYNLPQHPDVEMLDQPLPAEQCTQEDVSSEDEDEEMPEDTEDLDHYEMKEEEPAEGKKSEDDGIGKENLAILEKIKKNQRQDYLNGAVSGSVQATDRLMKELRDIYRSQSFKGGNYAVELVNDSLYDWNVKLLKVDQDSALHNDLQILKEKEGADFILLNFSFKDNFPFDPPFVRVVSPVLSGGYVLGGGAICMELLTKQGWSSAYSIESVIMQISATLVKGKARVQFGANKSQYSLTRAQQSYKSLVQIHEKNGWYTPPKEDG
Sequence of UniProt P63146 (whole entry, looked up): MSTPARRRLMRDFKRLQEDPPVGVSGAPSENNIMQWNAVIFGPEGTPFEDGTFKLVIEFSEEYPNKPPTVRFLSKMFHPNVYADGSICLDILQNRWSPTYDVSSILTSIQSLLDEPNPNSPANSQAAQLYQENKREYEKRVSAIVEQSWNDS

Sample 1
Sequence: ALDRLEKLLRCSRCTNILREPVCLGGCEHIFCSNCVSDCIGTGCPVCYTPAWIQDLKI (BARD1 RING domain (UniProt Q99728))
Technique: yeast two-hybrid
Sample: yeast
Notes: mostly zero background
Reference: not given
Reading: higher = stronger interaction
target	lacZ reporter activity
UBE2C UBC core domain (UniProt O00762)	0
UBE2M UBC core domain (UniProt P61081)	0
UBE2B UBC core domain (UniProt P63146)	0
UBE2T UBC core domain (UniProt Q9NPD8)	0
UBE2Q1 UBC core domain (UniProt Q7Z7E8)	0
UBE2S UBC core domain (UniProt Q16763)	0
UBE2E3 UBC core domain (UniProt Q969T4)	0

Sample 2
Target: RING finger protein unkempt homolog, zinc fingers 1-6, GST-SBP tag (UNK, Homo sapiens, UniProt Q9C0B0, residues 30-357)
Technique: RNA Bind-n-Seq
Molecule type: RNA
Sample: in vitro
Concentration: not given
Notes: RNA with constant flanks, human and mouse sites, ends assumed
Reference: input RNA pool
Reading: higher = stronger binding
Shared flanks, not repeated: GGGAGUUCUACAGUCCGACGAUC … CAACAGAGGAUUGAGCAUCA
Target sequence (chain): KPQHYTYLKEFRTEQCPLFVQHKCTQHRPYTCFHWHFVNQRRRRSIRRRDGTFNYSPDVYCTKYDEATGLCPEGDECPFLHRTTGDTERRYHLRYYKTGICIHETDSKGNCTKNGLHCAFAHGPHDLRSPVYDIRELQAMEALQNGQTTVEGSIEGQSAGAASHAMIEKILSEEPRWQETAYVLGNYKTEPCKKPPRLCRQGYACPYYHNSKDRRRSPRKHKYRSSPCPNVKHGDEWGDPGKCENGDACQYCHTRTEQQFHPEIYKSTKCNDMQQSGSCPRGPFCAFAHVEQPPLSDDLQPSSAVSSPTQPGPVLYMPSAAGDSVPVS
Oligonucleotide	bound/input enrichment [ratio]
GAUACCGACGGGGGUUUUGUGCACUCGGACGGUGCCAUCUCCUGCCACGACAUGUUUGAUUUUCUGCAUCUGACAGGAGGGGGCUAUGCAAAGAUCUGCAAACCCCUGCAUGAACUGAUC	0.0342
AAUAAUACUAUUCAAAAUGGAGGAGGAGAUGACUUAUCUAAUCAGGAAUUAAUUGGAAAAAAAGAAUAUAAAAUGUCUUCAAAGAAACUAAAAAUUGGUGAAAGAACAAAUGAAAGGAUA	0.377
UGCACAGGCCUCACAGUGCGUCUGGCCGGCGCUUUAUAGCUGCAGCCUGGGCGGCUCCGCUAGCUGUUUUUCGUCUUCCCUAGGCUAUUUCUGCCGGGCGCUCCGCGAAGAUGCAGCUCA	0.134
AAGGAACUGGAAGUACCUCAUUUUCACCAUGAGCUUGUAUAUGAAGCUAUUAUAAUGGUUUUAGAGUCAACUGGAGAAAGUACAUUUAAGAUGAUUUUGGAUUUAUUAAAGUCCCUUUGG	0.365
AGCACAUGGUUUGGGACUUGCACGUUCUGCCAUGGAGGAGUCUUCAGUGACAGUUGGCACAAUAGACGUUUCUUAUCUGCCCAGUUCAUCGGAAUACAGCCUUGGCCGAUGUAAACACAC	0.224
GAAGAAGGCUGCUUUGCGUUUGUUUUUAAGACGUUAACAUUAUUUUUUUGGUUGUACUGCACUAGGAAAUCUCUCCUACCCCUCCUUUUCUCUUCUCUCCCUAGAUAAAAAUAAAAGGCC	3.73
AAUUUUCCUUUCAUAUAAAAACUGAUCUCCCCUCCUCCCAUAAAUAUUUUUACUUCAAGGACUAGGACCAGUUUGUUUUGGGCCCUUAUGUGAAAAUUUGUCUCGUUUAAGAGGCAUCUU	0.245
UGACUAUUAUAUGGUGGGUGUGUUUCCUUACCAGCGUGAGUAUGAGUGCCCAGACUUCCCCAGCAGAGAAGGGCCUGAAUCCGGGGCUGAUGUGCCAGGAAAGUUACGCUUGCAGCGGGA	0.246

Sample 3
Target: Interferon regulatory factor 7, full length, phosphomimetic (IRF7, Homo sapiens, UniProt Q92985, residues 1-503, S471D/S472D/S475D/S476D/S477D/S483D/S484D/S487D)
Technique: protein-binding microarray
Molecule type: double-stranded DNA, one strand shown
Sample: in vitro
Concentration: 2200 nM top
Notes: 60-bp whole probe
Added: salmon DNA 0.4 mg/ml
Reference: random background probes
Reading: higher = stronger binding
Shared flanks, not repeated: GCCTAGCAC … GTCTTGATTCGCTTGACGCTGCTG
Construct (chain): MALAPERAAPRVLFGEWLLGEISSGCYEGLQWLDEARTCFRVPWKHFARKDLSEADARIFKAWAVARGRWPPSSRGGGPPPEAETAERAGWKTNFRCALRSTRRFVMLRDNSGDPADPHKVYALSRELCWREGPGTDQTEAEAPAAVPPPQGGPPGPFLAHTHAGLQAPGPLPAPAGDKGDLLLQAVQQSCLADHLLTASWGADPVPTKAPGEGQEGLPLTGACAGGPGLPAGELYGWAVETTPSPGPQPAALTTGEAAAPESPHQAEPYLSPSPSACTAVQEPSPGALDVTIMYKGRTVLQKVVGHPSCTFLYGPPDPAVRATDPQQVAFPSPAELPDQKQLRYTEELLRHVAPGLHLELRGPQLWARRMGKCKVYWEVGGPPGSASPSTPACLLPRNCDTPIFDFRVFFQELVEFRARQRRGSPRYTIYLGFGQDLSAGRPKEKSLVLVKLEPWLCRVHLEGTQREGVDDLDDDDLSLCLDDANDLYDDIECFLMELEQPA
Oligonucleotide	fitted relative affinity [z-score]
TTTTTTGTATTTTTGATAGAGTGCTAG	1.28
GACGGTATCGGGACTGTGGACGTGCTA	-0.442
TTAGTTATCGGGTATCGATTAGTGCTA	1.04
GACGAACTGGGGTCTCGAGACGTGCTA	-0.0157
GACGATCTCACTATCGAGACGTGCTAG	0.67
GACGAACTGAGTTTCGCGACGTGCTAG	0.963
TGAGGTTTCGACTTTCGGTTAGTGCTA	9.96
GACGATATCAGTTTCGAGACGTGCTAG	3.76
GACGATTTCGTGTATCGAGACGTGCTA	1.59
TTAGGGCTCCTTATCCTTTAGTGCTAG	0.166
TTAGAACTGGGGTTTCGATTCGTGCTA	6.46
TTACGTCTCGGTATCGGTTAGTGCTAG	2.04
AAAGATTTATCAAATGTGGGAGTGCTA	-1.08
TCAGTTTGCCCTATTTAACTGTGCTAG	2.36
CTATTTTTCCCCTGCACTCAGTGCTAG	2.17
ATCAGTTTAATATCTAAGATTGTGCTA	0.0231
TCAACTTTCTGAATGCTACTGTGCTAG	3.92
TTAGGTCTCCTTATCCATTAGTGCTAG	0.917
TTAGGTCTCGATTTCGGTTAGTGCTAG	3.69

Sample 4
Target: Histone acetyltransferase KAT6A, winged helix 1, GST fusion (KAT6A, Homo sapiens, UniProt Q92794, residues 1-85)
Technique: protein binding microarray
Molecule type: double-stranded DNA, one strand shown
Sample: in vitro
Concentration: not given
Notes: 8-mer, flanks averaged, mean of 2 arrays, mostly near background
Reference: not given
Reading: higher = stronger binding
Residues (chain): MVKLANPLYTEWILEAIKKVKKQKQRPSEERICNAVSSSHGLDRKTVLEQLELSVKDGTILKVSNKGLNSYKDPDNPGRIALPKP
Oligonucleotide	E-score
GAGGCGGC	0.348
TGTTCAAA	-0.259
TTCATCAA	-0.111
GCTCTTTA	0.0208
CACCTAGC	-0.0293
AAGTTTCG	-0.0391
CGCCCTAG	0.18
ACATGTCA	-0.092
ATGTTCAA	-0.0701
GAAAGATC	-0.0454
AACCGGAA	0.202
CTTGCCCC	-0.0511
GTGGAAAC	-0.187
GACGCCAA	0.0657
AAATTATA	0.082
CACTCACG	0.168
CTGGTCTC	-0.257
ACGGACGG	0.386
AAACGGAA	0.193
CACAGACC	0.0578
CGGCCTCC	0.225
AAGATTAC	0.071
CTGGGACA	-0.105
CCTCGTGA	-0.173
CGACACTC	0.0785
